{"data": "Experimental data from different studies", "note": "Each numbered part is a random draw from the data of one study; scales do not carry over between parts."}
{"data": "Set 1", "target": "RING finger protein unkempt homolog, zinc fingers 1-6, SBP tag (UNK, Homo sapiens, UniProt Q9C0B0, residues 30-357)", "method": "RNA Bind-n-Seq", "molecule type": "RNA", "sample": "in vitro", "tested at": "100 nM", "notes": "RNA with constant flanks, vertebrate orthologous sites, ends assumed", "baseline": "input RNA pool", "direction": "higher = stronger binding", "shared flanks, not repeated": "GGGAGUUCUACAGUCCGACGAUC … CAACAGAGGAUUGAGCAUCA", "UniProt Q9C0B0, sequence (30-357, looked up)": "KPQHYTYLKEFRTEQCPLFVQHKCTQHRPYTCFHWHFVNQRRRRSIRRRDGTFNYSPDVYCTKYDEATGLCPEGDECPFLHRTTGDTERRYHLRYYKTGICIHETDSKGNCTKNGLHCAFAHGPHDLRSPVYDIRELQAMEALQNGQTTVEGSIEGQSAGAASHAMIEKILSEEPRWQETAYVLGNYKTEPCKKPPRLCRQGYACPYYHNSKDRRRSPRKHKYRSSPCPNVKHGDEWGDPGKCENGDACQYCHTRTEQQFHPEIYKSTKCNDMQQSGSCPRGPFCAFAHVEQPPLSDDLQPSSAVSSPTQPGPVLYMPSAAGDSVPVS"}
{"Sequence": "UGUGCUUAUACUCUUCUAUGGAAGAGAUGAAUUGGGAAAUACUGUUUCCUUUUUAUAGAUUAGUUUGUUUCUAAAUUAUGACCAAAAAUAUUUUGCUAUUUCUUUCUUUAUAUAUGGACA", "bound/input enrichment": "0.645 ratio"}
{"Sequence": "AGAAAGAAUAGGUUUUAAGUCUUAUGAACACAUAACUCUAGAGAAGUUUACAGCAAAGCCUAGUUUACAGGGGUAUCUUGUGCUGCAGUACUUUUAUAAAGUGUUUUUCAGAAUCAUGAA", "bound/input enrichment": "0.554 ratio"}
{"Sequence": "AGCAACUCAAGGAUUCAGAACUGGUUUUACAAAUGUCCCAAGCAGAUAUGGAAGCAACGCUCGUGGUCAGCCCCGACCGUAAUAAACACCAUUAUUUAUUAUACUUAAGGGUAUUGACUU", "bound/input enrichment": "0.404 ratio"}
{"Sequence": "GUUGGGUCAUGACCCCUAUAGGUUAGGCCAUGAUGCUUACAGGUUAGGACAGGACCCUUAUAGGUUAGGUCAUGAUCCCUACAGACUAACUCCUGAUCCCUAUAGGAUGUCACCCAGGCC", "bound/input enrichment": "0.462 ratio"}
{"Sequence": "GACAGGGCCCAGGCCCCCGCCACUCAGAGUGACCCACUGGCCACUUCAGCCAGGCCAUUUUGGCUCUGUUUUUUAUUUUAACAGUGCCCUUAUUACCCCUGUAUAUAUGCCUGAGAUUUG", "bound/input enrichment": "0.685 ratio"}
{"Sequence": "UUGCUUUCAGGUUGUGGCUAAUUGCCCUCAUUCCCUGCCUCCACUUUAAGUUUUUUCCUUUGCACCCUCCAUAUCCCCUCUCUCAACUCAGAUAGGUGUGGAGUAUUUUACUCAGUCAUU", "bound/input enrichment": "0.629 ratio"}
{"data": "Set 2", "target": "Sal-like protein 4, full length isoform A (SALL4, Homo sapiens, UniProt Q9UJQ4, residues 1-1053)", "method": "universal PBM", "molecule type": "double-stranded DNA, one strand shown", "sample": "in vitro", "tested at": "600 nM", "notes": "8-mer, flanks averaged, mean of replicates", "direction": "higher = stronger binding", "UniProt Q9UJQ4, sequence (whole entry, looked up)": "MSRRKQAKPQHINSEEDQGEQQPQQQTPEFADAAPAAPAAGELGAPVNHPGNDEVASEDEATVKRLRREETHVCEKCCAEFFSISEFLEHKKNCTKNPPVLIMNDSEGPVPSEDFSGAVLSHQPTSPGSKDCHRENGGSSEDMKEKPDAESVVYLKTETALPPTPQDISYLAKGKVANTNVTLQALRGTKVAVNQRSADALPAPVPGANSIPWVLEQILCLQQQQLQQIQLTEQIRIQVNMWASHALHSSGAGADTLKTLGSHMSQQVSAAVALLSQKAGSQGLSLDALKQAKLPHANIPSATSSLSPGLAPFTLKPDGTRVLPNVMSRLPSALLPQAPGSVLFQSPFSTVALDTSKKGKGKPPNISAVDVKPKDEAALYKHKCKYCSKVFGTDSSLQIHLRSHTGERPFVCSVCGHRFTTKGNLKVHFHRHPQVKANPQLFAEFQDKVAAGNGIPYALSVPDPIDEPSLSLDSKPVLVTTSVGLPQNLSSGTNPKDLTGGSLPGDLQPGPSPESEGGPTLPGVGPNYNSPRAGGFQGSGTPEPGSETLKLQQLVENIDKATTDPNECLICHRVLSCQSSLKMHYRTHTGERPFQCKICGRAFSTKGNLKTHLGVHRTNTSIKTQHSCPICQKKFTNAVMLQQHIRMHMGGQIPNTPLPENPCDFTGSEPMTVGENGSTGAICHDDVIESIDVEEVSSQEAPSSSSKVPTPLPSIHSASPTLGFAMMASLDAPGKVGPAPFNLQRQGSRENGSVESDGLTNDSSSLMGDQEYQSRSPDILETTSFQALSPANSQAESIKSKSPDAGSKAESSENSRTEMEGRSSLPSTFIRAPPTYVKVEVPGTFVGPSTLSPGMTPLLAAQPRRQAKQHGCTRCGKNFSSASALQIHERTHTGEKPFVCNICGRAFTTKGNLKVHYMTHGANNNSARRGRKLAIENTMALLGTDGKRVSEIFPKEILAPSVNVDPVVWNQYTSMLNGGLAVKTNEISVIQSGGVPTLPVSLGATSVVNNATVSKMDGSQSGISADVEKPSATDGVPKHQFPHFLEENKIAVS"}
{"Sequence": "AAAGCCCT", "E-score": -0.0983}
{"Sequence": "CCGTTTGC", "E-score": -0.263}
{"Sequence": "ACGCGATG", "E-score": -0.11}
{"Sequence": "CATCCCAA", "E-score": 0.157}
{"Sequence": "GTCCTGCA", "E-score": -0.107}
{"Sequence": "GATGCTCA", "E-score": -0.124}
{"Sequence": "GGACAACA", "E-score": -0.0659}
{"Sequence": "AAGAGCGC", "E-score": -0.16}
{"Sequence": "GACGTTGA", "E-score": -0.0183}
{"Sequence": "CACACGCC", "E-score": -0.0864}
{"Sequence": "AGATGGAG", "E-score": -0.0608}
{"Sequence": "AGTATACC", "E-score": 0.207}
{"Sequence": "CGAAAGTC", "E-score": -0.0386}
{"Sequence": "AGGGAGAC", "E-score": -0.234}
{"Sequence": "CCCATTCC", "E-score": -0.265}
{"Sequence": "TAAGGAAA", "E-score": 0.106}
{"data": "Set 3", "target": "RNA binding protein fox-1 homolog 2, RRM domain, GST-SBP tag (RBFOX2, Homo sapiens, UniProt O43251-10, residues 100-194)", "method": "RNA Bind-n-Seq", "molecule type": "RNA", "sample": "in vitro", "tested at": "365 nM", "notes": "natural RNA segment, single round, ends assumed", "baseline": "no-protein control", "direction": "higher = stronger binding", "shared flanks, not repeated": "GGGAGUUCUACAGUCCGACGAUC … UGGAAUUCUCGGGUGCCAA", "Residues (chain)": "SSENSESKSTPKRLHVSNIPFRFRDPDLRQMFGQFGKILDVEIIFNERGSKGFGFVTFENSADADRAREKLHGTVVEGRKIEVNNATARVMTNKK"}
{"Sequence": "GGCCUUCAUCCAGGAACAGACCAACAUAAACCAGCAUCUUCUACCAGUUAGCACUGUCCUCCUGGACCAUGCUGAGGGUUGGGCCUCUCCCUCAGAGUCCUUUCUCACUG", "RBNS enrichment (R)": 2.03}
{"Sequence": "AAACGAGGACACGACGGCCAAGGUGGCAGUUUGUCCCACGGGAGGACAGUCGUUUCUUUUCCAGCCUCCUGGCCUUCGGACUCUGAAUCUGGGCAGGAAGAGUCCUCAGU", "RBNS enrichment (R)": 0.297}
{"Sequence": "UCAGAAUAUCCAAGUCCUGUAUGUGUGUGUCAUCCUCUUGCGAUCAUUUUUACUAAUCCUAAUACUCUGCUCUAGCUUGCUUCAGAACUCCCGUGGCUUUGCUUGAUCUG", "RBNS enrichment (R)": 2.59}
{"Sequence": "UGACAGUCCCCCAGAAACUUGGUGUGUCCUGGGCUGGACUGACACCCAGAAAGCUUACCUGCGAGCUUGGGGUUUGGCUUGAGUUCUCUUUUCCUUGAUUUCUCAGUAGG", "RBNS enrichment (R)": 0.542}
{"Sequence": "AUUUGGGAAUUGAAUGUGGCCUCAGAUUUCUUCUAGUACUUGUUUUCGAUACAUAAUUAUGGUUUCUGUAUAAGAAGGUAUUGGUUAAGUAUCACGUUUUCAGCCAUGUU", "RBNS enrichment (R)": 1.36}
{"Sequence": "UCAUCCUUCCAGUUGUUGUGUAGCGUAUGGAACCAUGUCAUCCUUUUACUAGGCAAAUACACAUACUAUCUCACAUAGAUGAUUAUGAAACUGAAUGAAAACCUGUCAUG", "RBNS enrichment (R)": 0.365}
{"Sequence": "ACAGGAUGGAAGGAAUCAAAGCACUUUAUCGAGCUUGUGGCUGAGCAUUGCAGCCUAUGUGCAAACCCAGAGGAAAAGUAUCUCUGUCAAGACAGCUCCAGUAUCAUGCA", "RBNS enrichment (R)": 3.96}
{"Sequence": "CAGUGGAGCGAGCGGACAUUCUGAUCGCUGCAUUUCUUUAGAUCUCGGAGCUAAGUGUAUAUAUGAGUAGUUUGCCAAUGGAUAACACAGUGUAAACAGUAGACACCCAG", "RBNS enrichment (R)": 0.689}
{"Sequence": "GAGGCAGACAGACUGAGGCACCACAGAGGGUCAAACAAGCGUGCUUCCCUCACACACUGUGACUAUUGGGAGACUGCGCCAGUUAGCAGUAGUUCACUCAGCCUUGAUUG", "RBNS enrichment (R)": 0.551}
{"Sequence": "GUCCCCCUUUCAGGCGUGUGGCGUCAUUCAUGGAGGAAGUGCUGGCUCUACUUAGCACACGCACAGUGGCACUAGGACCUGCGUGCCUGGCCCUCAGUGGGUAGGGCGGU", "RBNS enrichment (R)": 0.333}
{"Sequence": "GGCAGAGAUGCAGUUACCUACCCUAGCUUUUGAUGGGUUCUCUUACCUGUAGUAGCCUUAUCCCUGGUCAUUUGGAUUUUCAGUUUGCUUUUUUCUUUUUUUCCCCUCCA", "RBNS enrichment (R)": 2.3}
{"Sequence": "UGAUGGCAUUUUUUUGUCAUGAAAAAAAAAUAAUGUAAAUCACAGACUUUUGCCAAAGCUCUUAUUUUUUUUCUAAAUCUCUCCAGAAAAAAAUUGCAAGUGAUUAGAUU", "RBNS enrichment (R)": 1.25}
{"data": "Single results of other studies"}
{"Substance": "PhoQ, residues 284 288 289 292 302 303 GASLAW", "target": "PhoP, residues 12 14 15 18 19 NHTVL (Escherichia coli, UniProt P23836)", "test": "Sort-seq, item: YFP reporter", "system": "E. coli", "conditions": "PhoQ-PhoP variant library, with: 10 µM Mg2+", "scale": "baseline: high Mg2+ state, higher = stronger signaling", "measurement": "fold induction", "value": 0.722}
{"note": "For quick reference, copied from above (set 3):"}
{"Sequence": "UGAUGGCAUUUUUUUGUCAUGAAAAAAAAAUAAUGUAAAUCACAGACUUUUGCCAAAGCUCUUAUUUUUUUUCUAAAUCUCUCCAGAAAAAAAUUGCAAGUGAUUAGAUU", "RBNS enrichment (R)": 1.25}
{"Sequence": "UGACAGUCCCCCAGAAACUUGGUGUGUCCUGGGCUGGACUGACACCCAGAAAGCUUACCUGCGAGCUUGGGGUUUGGCUUGAGUUCUCUUUUCCUUGAUUUCUCAGUAGG", "RBNS enrichment (R)": 0.542}
